Experimental data gathered from unrelated publications.
A part holds a random share of what one study measured.

Set 1
Target: RING finger protein unkempt homolog, zinc fingers 1-6, GST-SBP tag (UNK, Homo sapiens, UniProt Q9C0B0, residues 30-357)
Chain of UniProt Q9C0B0 (30-357, looked up): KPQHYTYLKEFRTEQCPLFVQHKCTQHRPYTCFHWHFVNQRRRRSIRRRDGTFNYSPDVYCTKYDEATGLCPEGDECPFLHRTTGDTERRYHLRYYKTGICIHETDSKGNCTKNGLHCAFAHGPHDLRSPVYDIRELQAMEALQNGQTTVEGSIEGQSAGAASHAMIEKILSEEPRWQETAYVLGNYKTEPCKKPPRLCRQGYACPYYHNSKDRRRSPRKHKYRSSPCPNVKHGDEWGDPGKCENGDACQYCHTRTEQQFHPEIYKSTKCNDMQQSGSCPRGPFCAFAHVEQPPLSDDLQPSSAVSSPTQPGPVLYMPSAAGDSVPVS
Technique: RNA Bind-n-Seq
Molecule type: RNA
Sample: in vitro
Tested at: not given
Setting: RNA with constant flanks, ends assumed
Baseline: input RNA pool
Direction: higher = stronger binding
All sequences stand within: GGGAGUUCUACAGUCCGACGAUC … CAACAGAGGAUUGAGCAUCA
Oligonucleotide	bound/input enrichment [ratio]
UGGUUCCUGGAAGCUGAAGGCAAUGAAUGGCUACUUCAAGAACAGACCCCAUCUGGAGACACCGAGAAUAUUUCCAAUCAGCCGGCGAUUUCCCUGCAGAUUCCUACCCAUUGCUUGUCA	0.145
UGAAGAUCUGUACCUGUGCACAGUGAGCUUCAAAACAAAACACAAUUGAGCUUACGUUUGUCCGCAGGCGUAGAGUAUUCAUUACGUAAUGAAGUACUUAAGCAGCUACAGGGAAGUAUU	0.162
AAACACGAGCGGAUUGAAAACGACGUGGCCACCAUCCUGUCUCGCCGCAUUGCUGUGGAGUACCGCGACUCGGAAGAUGACUCGGAGUUCGAUGAAGUAGACUGGCUGGAGUAAGAAAGC	0.168
GGGCGGCCGGUGGGGGAAUCCCCUGCCUUGGCCUUGCCUCCCCUUCCUGCCACGUGCCCCCCGUUAUUUUUUUUUUUUUAACACCAUGUGAUUAAGGUCGGCGCUGCCUCCCCCGACCCA	4.77
UAACGCCGCCGCCCCGGAGCCGCCUUGGAGGUCCCCCUCCCCACUAAGUGCCUCUUUGCACCGCACCAGUCCCCACCCGCACGCUCUCUGGACCACUACAGCUGGACGGGCAAUGGCGGG	0.44
GACCACAUUGCUGGAGAUGAGGAUCACACAGAUGGAGUAGUAGCUUGUGCUGCUGGACUAACCGGGGACUUAUGUACAGCAUUUGGGAAGGAUGUACUGAAAUUAGUAGAAGCUAGGCCA	0.86
GUGAAGUACGCGUAUUAUGACACUGAACGCAUUGGAGUUGACCUCAUCAUGAAGACGUGUUUCCGCCCCAACCGGGUGAUUGGACUCUCAAGUGACUUACAACAAGUGGGAGGGGCCUCA	0.155
UAAACAUCUCACAUAUGAAAAUGUAGAGCGAUGGCUGAAAGAACUGAGAGAUCAUGCUGACCGUAACAUUGUUAUCAUGCUUGUGGGCAAUAAGAGUGAUCUACGUCAUCUCAGGGCAGU	0.135
ACAGCUGAUUCACUCAUUGGGAGAGCUGCACAUAUAGCUGUUCUUGAUUCGGAAAUAUUUUCCGAGAAAUUCUUUCUGGUUGCUGCCCUCAAAUAUUUCCAAUAGUAUAAAAGCAUUGUU	1.04
AAUCUUGGAAUGAGUUCUUCAUUGAAUCAACAAGGAGCUCAUAGUGCACUGUCUUCUGCCCGUACUUCUUCCCAUAAUUUGCAGUCUAUAUUUAACAUUGGAAGUAGAGGUCCACUCCCU	0.414
GAUCACUUCAUUUCUAAGUGUUUUAAGUGGGGAGCAAAGUACAUGUUAAAAGCAUGUUGCAUCCGAUAUAAAUUCAGUUUUUUAAACUCUUACCAAUGUAAGAACUGCAGAAAUAUUUUU	0.144

Set 2
Target: Sal-like protein 4, full length isoform B (SALL4, Homo sapiens, UniProt Q9UJQ4-2, residues 1-616)
Technique: universal PBM
Molecule type: double-stranded DNA, one strand shown
Sample: in vitro
Tested at: not given
Setting: 8-mer, flanks averaged, mean of replicates
Direction: higher = stronger binding
Oligonucleotide	E-score
CCTTGCGC	-0.225
CCAACTTC	-0.0374
AGGTGGGC	-0.292
CATGCCGC	-0.0943
ATTGATCA	0.24
AAAACTGA	0.102
ACGGGATG	-0.21
AAGCGTAT	0.00841
GGAGATAA	0.14
ATCGGATG	-0.125
TGAGCTCA	-0.246
CTATGTCC	-0.054
AGGGGACG	-0.262
CGTAAAAC	0.0508
CACTGAGA	-0.121
AGACGTCT	-0.0417
GAGAAATC	0.0675
CTCAGCGA	0.00344
AACCACTA	0.117
GCCCAGGA	-0.262
CCGTTTAG	-0.0713
CGCATAAG	0.18
ATTTGGGG	-0.0662

Set 3
Target: Runt-related transcription factor 1, full length (RUNX1, Homo sapiens, UniProt Q01196-8, residues 1-480)
Technique: protein-binding microarray
Molecule type: hairpin DNA
Sample: in vitro
Tested at: not given
Setting: whole hairpin DNA, median over replicate spots
Baseline: not given
Direction: higher = stronger binding
Oligonucleotide	median fluorescence
GAGGCCCAAGCGCAACAGCCTCCTGGCTGTTGCGCTTGGGCCTCACACTC	1740 a.u.
CTCAGTTCTCTGGGCTGGACTCCTGTCCAGCCCAGAGAACTGAGACACTC (5mC at 10)	1610 a.u.
CTCAGTTCTGAGGGCTGGACTCCTGTCCAGCCCTCAGAACTGAGACACTC	1710 a.u.
GAGGCCCAACCGCAACAGCCTCCTGGCTGTTGCGGTTGGGCCTCACACTC (5mC at 11)	2090 a.u.
GAGGCCTGTGGTGGTTGGCCTCCTGGCCAACCACCACAGGCCTCACACTC	2310 a.u.
GAGGCCTGCGGTGGTTGGCCTCCTGGCCAACCACCGCAGGCCTCACACTC (5mC at 9 35)	2260 a.u.
GAGGCCCAACCGGAACAGCCTCCTGGCTGTTCCGGTTGGGCCTCACACTC (5mC at 32)	1740 a.u.
GAGGCCTGTCGCGGTTCGCCTCCTGGCGAACCGCGACAGGCCTCACACTC	2300 a.u.
GAGGCCGGTTGCGGTTGGCCTCCTGGCCAACCGCAACCGGCCTCACACTC (5mC at 38)	7480 a.u.
GAGGCCTGTTGTGGTCGGCCTCCTGGCCGACCACAACAGGCCTCACACTC (5mC at 16 28)	2860 a.u.
GAGGCCTGTCGCGGTTGGCCTCCTGGCCAACCGCGACAGGCCTCACACTC (5mC at 20)	2910 a.u.
GAGGCCTGTCCGGGTTGGCCTCCTGGCCAACCCGGACAGGCCTCACACTC	1790 a.u.
GAGGCCTGTTGTGGTTGGCCTCCTGGCCAACCACAACAGGCCTCACACTC (5mC at 28)	3430 a.u.
GAGGCCGAACCGCAACAGCCTCCTGGCTGTTGCGGTTCGGCCTCACACTC	4460 a.u.
CTCAGTTCTGTGCGCTGGACTCCTGTCCAGCGCACAGAACTGAGACACTC (5mC at 13)	1720 a.u.
GAGGCCTCTTGCGGTTGGCCTCCTGGCCAACCGCAAGAGGCCTCACACTC (5mC at 8)	5490 a.u.
GAGGCCTGTCGCGGTCGGCCTCCTGGCCGACCGCGACAGGCCTCACACTC (5mC at 16 28)	2320 a.u.
GAGGCCTGTCCCGGTTGGCCTCCTGGCCAACCGGGACAGGCCTCACACTC	1730 a.u.

Set 4
Target: RNA binding protein fox-1 homolog 2, RRM domain, GST-SBP tag (RBFOX2, Homo sapiens, UniProt O43251-10, residues 100-194)
Technique: RNA Bind-n-Seq
Molecule type: RNA
Sample: in vitro
Tested at: 365 nM
Setting: natural RNA segment, single round, ends assumed
Baseline: no-protein control
Direction: higher = stronger binding
All sequences stand within: GGGAGUUCUACAGUCCGACGAUC … UGGAAUUCUCGGGUGCCAA
Target sequence (chain): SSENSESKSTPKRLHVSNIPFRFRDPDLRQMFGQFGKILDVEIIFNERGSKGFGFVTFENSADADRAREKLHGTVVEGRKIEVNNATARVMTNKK
Oligonucleotide	RBNS enrichment (R)
AGGCAGACACUUUAGGUUGGUACUUUUAUUCUAAAAGCCUUUUUAAGGGUAAUCUUCCUUCUCUGAUUACAGGAGCUGAAAUUUGACUUUUCUAACAGGCUCAGUCCUUA	0.272
CUUGCUUUAAAAUUUAGUCCUGUGCAUACUGUGGUGUUUUUACUGUGCAUAUUUGAAUUUUUCAUGCAGUUUUUCUAGAGCAAUAAUCAGUGGUGCUUUUGUACCUAGGU	0.525
GGGAAUCAGUGUACUGAUUAUGUUUUCAUCACCAGGCUGUGAGCAAUAUCUUGAGUUUGUAGCUUAGAAUUGGGAAGGCACUGAACAUCUGGAAGACAAGGUCAUUUCAU	0.416
AUGGCAUCUCUCGCCUCCCUCGCUCGUCUCAGCCCAGCCCUGGAAGACUGAGAAUGUUCCCCCAAAUCUCCUCUGCCAACCAGAGCUCUGGGCACAGAUUCUGGUGGCUC	0.406
GAGAAACUAAUCAAAGACUAAUCUCUGUUGGAGGUUGGGAAUAAUGUUUUGCCACUUCUGCAGACUGAGAGACGUGUCAUUGGACAUGUGUAACCAUUUGAUAUCUGAGC	0.234
CCCAAGUCUCCUAGACCCCCAGGGAGCCAGUGAACUGUCACCUUCUCUUCAUCACAGAAUGAGUAAAAUCCCUGAACAAAUGCAUUGUGAACCCAUUCCCCACUCCCACC	0.944
GGCCCGGUGGCAAGCGCUGAAAAACCGACCGCCUGUAGGCUCCUGGAACUAUACAGAUAGGUAAAGAGUUCCAAGUUCGUCCAGCCCAUGUGCAAAGUCAACAGUAUUUG	0.689
CGUUAAGUGUAAGGUAAAUUAUGUUCUCGAUGCCUCCUAAUCAAACCACUUAGGUUAGAAAGAAACAGGAAUCAUCCUAGGCAGGAAAAUUACUCCACUUUUUUUUAAGU	0.329
CUGUUCCCGUCCACAAGCUGAGCCAUAUGUACAUAAGCUAGACUGUUUUCUUAGGUGUGCACUUUUAUAGUCUGUUUUUGAAGAUUAACACAUUUGCAAGGUGAUUGACA	0.794
UUGAGCUCUGGGGAGAAAGGAUAUGAGGAGUCUACACUGACCUUCCACUUCUUUUUUCACCCAGUUGCCUUUAAACCAGACUCUAAACAGCCUAUCUCCAGGUAGAAAGG	0.248
CUCUAUCCUUUUGAGCUCUUCUGUCUUUUUAUAGUAAGCUUCCUCCACCUGUGUUGCUUUUGUAACUUGAUAUUUAUGCAGGGUUUUGUAGUUUUUAUUAUGUAGUGACU	0.549
UUUGGUUUCUGUAUUUUUCACAAUGAUUAAUGAACAAAAACAAAGAGAAAAAAACACACAUCAAUUAAAGGAGACAAAAAGAGGCAGAGCGAGUAGAGAGCAGCCCUCAU	0.569

Repeated from above (set 2):
Oligonucleotide	E-score
CTATGTCC	-0.054
AGGTGGGC	-0.292
AGGGGACG	-0.262
TGAGCTCA	-0.246
ATCGGATG	-0.125
CACTGAGA	-0.121
